Assay results collected from several papers.
Numbered parts are unrelated; each lists some results of a single study.

Block 1 — method: universal PBM; form: double-stranded DNA, one strand shown; matrix: in vitro; concentration: not given; direction: higher = stronger binding
Target: Sal-like protein 4, full length isoform B (SALL4, Homo sapiens, UniProt Q9UJQ4-2, residues 1-616)
Setting: 8-mer, flanks averaged, mean of replicates
Target sequence (chain): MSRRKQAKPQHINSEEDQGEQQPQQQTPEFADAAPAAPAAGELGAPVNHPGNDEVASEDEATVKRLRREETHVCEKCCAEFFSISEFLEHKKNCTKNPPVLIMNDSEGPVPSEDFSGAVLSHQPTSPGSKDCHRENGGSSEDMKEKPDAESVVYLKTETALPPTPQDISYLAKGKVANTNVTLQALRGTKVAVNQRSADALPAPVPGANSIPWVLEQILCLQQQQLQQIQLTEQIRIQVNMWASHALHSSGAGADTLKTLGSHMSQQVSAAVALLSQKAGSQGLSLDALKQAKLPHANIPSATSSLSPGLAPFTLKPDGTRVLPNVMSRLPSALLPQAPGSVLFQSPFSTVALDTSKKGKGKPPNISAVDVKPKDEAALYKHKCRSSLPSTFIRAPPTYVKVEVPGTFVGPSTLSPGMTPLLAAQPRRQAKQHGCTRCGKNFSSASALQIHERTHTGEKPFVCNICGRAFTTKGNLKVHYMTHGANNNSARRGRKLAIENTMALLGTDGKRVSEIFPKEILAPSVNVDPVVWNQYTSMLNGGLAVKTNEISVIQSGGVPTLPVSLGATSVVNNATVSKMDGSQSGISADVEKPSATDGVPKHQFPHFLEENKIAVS
For `CCAGTTTC`, the E-score was -0.251.
`ACGACAGA` has an E-score of -0.149.
`GGCTTAAA` gave an E-score of 0.039.
The E-score of `TTAGTGAA` is reported as 0.111.
`CGATTATA` gave an E-score of 0.304.
`CACATGAG` gave an E-score of 0.0442.
For `CCGGCCGC`, the E-score was -0.332.
With `ACTCTATC` the E-score was 0.0204.
`CCAACCCC` has an E-score of -0.101.
The E-score of `GCACCCGA` is reported as -0.393.
With `ATGGCAAC` the E-score was 0.22.
For `GTCGTTCA`, the E-score was 0.0316.
The E-score of `ATTAGCCA` is reported as 0.0487.
With `GCTAACAC` the E-score was -0.171.
With `AGTTCAGC` the E-score was -0.196.
With `CTCTCTCA` the E-score was 0.0395.
For `CGTGTATC`, the E-score was 0.0318.
The E-score of `CGAAAAGA` is reported as -0.00781.
`CAACATTC` has an E-score of -0.0896.

Block 2 — method: RNA Bind-n-Seq; form: RNA; matrix: in vitro; concentration: not given; setting: RNA with constant flanks, ends assumed; relative to: input RNA pool; direction: higher = stronger binding
Target: RING finger protein unkempt homolog, zinc fingers 1-6, GST-SBP tag (UNK, Homo sapiens, UniProt Q9C0B0, residues 30-357)
Sequence of UniProt Q9C0B0 (30-357, looked up): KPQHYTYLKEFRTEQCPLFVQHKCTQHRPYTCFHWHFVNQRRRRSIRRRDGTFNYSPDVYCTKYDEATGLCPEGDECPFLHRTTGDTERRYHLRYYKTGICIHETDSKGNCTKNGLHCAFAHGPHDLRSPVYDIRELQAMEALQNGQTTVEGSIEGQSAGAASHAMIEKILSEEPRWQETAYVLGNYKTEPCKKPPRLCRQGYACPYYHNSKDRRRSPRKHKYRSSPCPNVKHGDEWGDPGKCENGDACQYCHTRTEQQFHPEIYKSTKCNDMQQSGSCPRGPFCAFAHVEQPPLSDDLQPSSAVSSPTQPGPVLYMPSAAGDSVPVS
For `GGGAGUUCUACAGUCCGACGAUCCCGCGGCUUGCCGGAAGUGGGCAGGGCGGCAGCGGCUGCUCUUGGCGGCCCCGAGGUGACUACCGCCUUCUUUUGUGUCUUGAUAGUUCGCCAUGGAUGACGAUAUCGCUGCGCUGGUCGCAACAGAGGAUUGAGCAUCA`, the bound/input enrichment was 0.122 ratio.
`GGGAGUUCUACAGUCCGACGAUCGAUGAAAUGGGCCUAGGAAAGACUCUUCAAACAAUUUCUCUUCUUGGGUACAUGAAACAUUACCGAAACAUUCCUGGGCCUCAUAUGGUUUUGGUUCCUAAGUCUACAUUACACAACUGGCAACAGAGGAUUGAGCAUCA` has a bound/input enrichment of 0.198 ratio.
With `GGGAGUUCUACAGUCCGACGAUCAGACUUUCCAGCUCAGAGAGUGAAGAGAGCUAUUUGUCCAAGAACUCUGAAGAUGAUGAGCCCGCUAAAGAAUCAAAGCGGUCAGUUCGAAAGCGGGGCCGAAGCACAGACGAGUAUUCACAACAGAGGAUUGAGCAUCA` the bound/input enrichment was 0.184 ratio.
For `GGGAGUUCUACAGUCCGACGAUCUGGGGCUCAUCUAAACUAGUUCCAGUGGGAUACGGAAUUAAGAAACUUCAAAUACAGUGUGCCGUUGAAGAUGAUAAAGUUGGAACAGAUAUGCUGGAGGAGCAGAUCACUGCUUUUGAGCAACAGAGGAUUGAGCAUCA`, the bound/input enrichment was 0.114 ratio.
With `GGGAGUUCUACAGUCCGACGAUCAGAAAUGGGCCGCUCCAAUUCUAGAUCACAUUCUUCAAGAUCCAAGUCUAGAUCACAGUCCCGUUCCCGAUCAAGAUCAAGAUCACAUUCUAGAAAGAAGAGAUACAGUUCUAGGUCUCGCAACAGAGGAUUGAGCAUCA` the bound/input enrichment was 0.159 ratio.
`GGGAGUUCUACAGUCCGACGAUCGACCCACAGUGGUCUGAGGAACAGCUGAUUGCUGCAAAAUUUUGCUUUGCUGGACUUCUUACCGGCCAGACUGAAGUGGAUAUCAUGAGUCAUGCUACACAGGCUAUAUUUGAAAUACUGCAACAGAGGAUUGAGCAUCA` has a bound/input enrichment of 0.186 ratio.
With `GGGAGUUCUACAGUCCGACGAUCGAAAUAGCAAGUCUUGAUUCAGAGAAUAUAGAUGAAAUUUUAAAUAAUGCUGAUGUUGCUUCCGUAAAUUUUUAUGCUGACUGGUGUCGUUUCAGCCAGAUGUUGCAUCCAAUUUUUGAGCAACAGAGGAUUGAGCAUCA` the bound/input enrichment was 16.7 ratio.
`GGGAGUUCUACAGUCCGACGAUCGGUGCACCUUCAUUUGUUAGAUUAUAUCAGUACCCCAACUUUGCUGGACCUCAUGCAGCUUCCGCUAAUAAAAGUUUCUUUAAGGCAGAUAAAGUUACAAUGCUGUGGAAUAAAAAAGCUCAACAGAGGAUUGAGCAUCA` gave a bound/input enrichment of 1.21 ratio.

Block 3 — method: protein binding microarray; form: double-stranded DNA, one strand shown; matrix: in vitro; concentration: not given; relative to: not given; direction: higher = stronger binding
Target: Histone acetyltransferase KAT6A, winged helix 1, GST fusion (KAT6A, Homo sapiens, UniProt Q92794, residues 1-85)
Setting: 8-mer, flanks averaged, mean of 2 arrays, mostly near background
Residues (chain): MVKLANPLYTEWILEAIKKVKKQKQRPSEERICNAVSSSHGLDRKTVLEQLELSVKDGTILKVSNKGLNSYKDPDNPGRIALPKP
The E-score of `GTTTGCTA` is reported as -0.105.
`TAATTTCA` gave an E-score of -0.102.
For `CAAGCTAA`, the E-score was -0.229.
The E-score of `GACCCAAC` is reported as -0.0888.
The E-score of `ACTATATA` is reported as -0.115.
`ATTAGCGA` has an E-score of 0.112.
`CCAGTCAA` has an E-score of -0.165.
`AGTGATTG` has an E-score of -0.198.
`CCATAAGG` has an E-score of -0.246.
`CGCGTGGA` has an E-score of 0.253.
For `ATCATTCC`, the E-score was -0.0116.
With `ATGGTGGC` the E-score was -0.0439.
The E-score of `CGAGCGTC` is reported as 0.233.
`AATGAGGG` gave an E-score of -0.268.
`GGAGCGCA` has an E-score of 0.32.
For `CTTAGGAC`, the E-score was -0.0799.
The E-score of `CCACCCGG` is reported as 0.196.
With `AGGAAATG` the E-score was -0.124.
`CCCTGCGA` has an E-score of -0.108.
The E-score of `GCGATGGA` is reported as 0.172.
`ATTAACGG` gave an E-score of 0.101.
For `AGCATACG`, the E-score was 0.088.
`CGGTCCAC` gave an E-score of 0.0673.
With `TACTCTCA` the E-score was -0.215.
The E-score of `ATACGATC` is reported as -0.0854.

Block 4 — method: RNA Bind-n-Seq; form: RNA; matrix: in vitro; concentration: 200 nM; setting: whole 134-nt RNA, ends assumed; with: 150 mM KCl; relative to: input library; direction: higher = stronger binding
Target: Fragile X messenger ribonucleoprotein 1, C-terminal low-complexity region (Fmr1, Mus musculus, UniProt P35922)
For `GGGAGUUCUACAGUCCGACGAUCGUCCUGUGCUACACAUCGUAUGUACCGAAUCGGUUUUUUUGGAAAAAAAGGAAAAAGGAAAGUAUUAUGUUACGCCGUUCGGAUCUGCACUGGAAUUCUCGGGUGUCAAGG`, the log2 enrichment was -0.999.
For `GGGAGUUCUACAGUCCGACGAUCACCAUGCAGGUGGGCAUCUUUGGGAAGUGGGGCAAGGGGAAAAUAGGGAGGGGGGUAACACUUUGGGAACAGGUGGUCCCAGGUCGUUUCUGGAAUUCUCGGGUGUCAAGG`, the log2 enrichment was 0.75.
`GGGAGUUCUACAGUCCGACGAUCCACAGACAACACGCACCCAAAAAGACACAGAGGGAAGGGGUUGGGAUGGGGACAGGGUGCACAGCAGGGCGGGGUAGGACCCCAGCCCCUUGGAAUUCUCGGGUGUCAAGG` gave a log2 enrichment of 1.3.
With `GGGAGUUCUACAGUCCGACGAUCCUGUGCUACACAUCGUAUGUACCGAAUCGGGGUUUUUUUGGGGUUUUUUUGGUUUUUUUGGAAAGUAUUAUGUUACGCCGUUCGGAUCUGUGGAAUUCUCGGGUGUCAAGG` the log2 enrichment was -0.771.
`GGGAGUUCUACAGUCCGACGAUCUUCUGGUCUGCUCACCAGAGGUUCUUCAAAUACUUAUGCAUAGCAUCCAAAGUUAAAAGGGUUGUGCAACUAGCUCGAGAGGAAAUCAAGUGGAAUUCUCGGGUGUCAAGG` has a log2 enrichment of -1.69.
`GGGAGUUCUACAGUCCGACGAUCAGUCCUGUGCUACACAUCGUAUGUACCGAAUCGGGGUUUUUGGGGUGGGGUUUGGGGAAAGUAUUAUGUUACGCCGUUCGGAUCUGCACUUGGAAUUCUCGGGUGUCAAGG` gave a log2 enrichment of 0.963.
`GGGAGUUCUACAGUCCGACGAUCCCUGUGCUACACAUCGUAUGUACCGAAUCGGGGUUUUUUUGGGGUUUUUGGGGAAAGGGGAAAGUAUUAUGUUACGCCGUUCGGAUCUGCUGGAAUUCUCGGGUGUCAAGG` has a log2 enrichment of 0.412.
`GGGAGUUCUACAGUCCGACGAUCCAAGUCCUGUGCUACACAUCGUAUGUACCGAAUCGGGUUUGGGAAAAAGGGUGGGAAAGUAUUAUGUUACGCCGUUCGGAUCUGCACUUCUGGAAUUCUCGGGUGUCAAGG` gave a log2 enrichment of 1.28.
For `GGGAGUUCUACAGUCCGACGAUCUCCUGUGCUACACAUCGUAUGUACCGAAUCGGGUUUUUUUGGGUUUGGGAAAAAAAGGGAAAGUAUUAUGUUACGCCGUUCGGAUCUGCAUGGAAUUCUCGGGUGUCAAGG`, the log2 enrichment was -0.325.

A few entries again (block 3):
The E-score of `GCGATGGA` is reported as 0.172.
The E-score of `GTTTGCTA` is reported as -0.105.
`CCAGTCAA` has an E-score of -0.165.
For `AGCATACG`, the E-score was 0.088.
With `ATGGTGGC` the E-score was -0.0439.
`ATTAACGG` gave an E-score of 0.101.
